Experimental data of several laboratories.
Lines come from different studies, so protocols differ. “And” joins repeats or separate records; there may be more than shown. Numbers after ± are the reported error.

Compound	assay	system	conditions	endpoint	result
C[C@]1(CO)Cc2ncn(-c3ccc(C#N)c(Cl)c3)c2C(=O)O1		healthy humans	10 mg, fed	drug-related Hyperhidrosis incidence	8.3%
CCc1ccc(CC/C=C/c2ccc3c(c2)C(=O)CC3)cc1		Sprague-Dawley rat, male, blood	oral, 30 mg/kg/day, 14 days	MCH	20.2 pg
Cc1ncc(C)n2nc(/C=C/c3nc(N4CCCC4)cc(N4CCOCC4)n3)nc12		F344 rat male, striatum	oral, 0.3 mg/kg, 60 min	tissue concentration	317 ± 51 ng/g
O=C(Nc1ccccc1)C1CCN(C(=O)Oc2cccnc2)CC1	adverse event reporting	healthy women	oral, 60 mg, 7 days	subjects with feeling drunk	21.4%
N#Cc1ccc(N2CCN(Cc3ccc(COc4cccc5c4CN([C@H]4CCC(=O)NC4=O)C5=O)cc3)CC2)c(F)c1	population PK model	human	oral, dose not given, BLQ concentrations excluded	central volume	434 L
O=C(c1ccc(F)c(F)c1Nc1ccc(I)cc1F)N1CC(O)([C@@H]2CCCCN2)C1		human patients	oral, dose not given, dose escalation, tablet	AE causing treatment withdrawal	6%
Cc1cc(C)c(CNC(=O)c2cc(Cl)c3c(c2C)O[C@@](C)([C@H]2CC[C@H](N(C)C)CC2)O3)c(=O)[nH]1		relapsed/refractory NHL patients	dose not given, trial, safety set, all TEAEs grade 5	incidence of muscle spasms	0%
O=C(O)CCCOc1ccc(F)cc1-c1cc(-c2ccccc2C(F)(F)F)n(-c2ccccc2)n1		female Crl:CD(SD) rats	intravenous, 25 µg/kg, 14 d	MCH	19.5 pg and 20.2 pg and 19.8 pg and 19.6 pg
CN1CC[C@@H](c2c(O)cc(O)c3c(=O)cc(-c4ccc(C(F)(F)F)cc4Cl)oc23)[C@@H]1CO	measured: Chills	B-cell malignancies or AML	oral, 50 mg, continuous dosing	patients with adverse event	12.5%
C=CC(=O)Nc1cc(Nc2nccc(Nc3cc(Cl)c(F)cc3C(C)(C)O)n2)c(OC)cc1N1CC[C@@H](N(C)C)C1		human	oral, dose not given	mouth ulceration TEAE	17.6%
CCS(=O)(=O)Nc1ccc(Oc2ccc(F)cc2F)c(-c2cn(C)c(=O)c3[nH]ccc23)c1	myocardial infarction leading to discontinuation	human, relapsed/refractory AML	oral, dose not given	treatment-emergent adverse events	5%
CC(C)CC(=O)OC[C@H]1O[C@@](C#N)(c2ccc3c(N)ncnn23)[C@H](O)[C@@H]1O		mouse whole blood	5 µM, 15 min	remaining compound	0%
CO[C@H]1C[C@@H]2CC[C@@H](C)[C@@](O)(O2)C(=O)C(=O)N2CCCC[C@H]2C(=O)O[C@H]([C@H](C)C[C@@H]2CC[C@@H](OC(=O)NCCOCCOCCOCCOCCOCCOCCOCCOCCC(=O)N3CCc4cc(Cn5nc(-c6ccc7oc(N)nc7c6)c6c(N)ncnc65)ccc4C3)[C@H](OC)C2)C[C@@H](O)[C@H](C)/C=C(\C)[C@@H](O)[C@@H](OC)C(=O)[C@H](C)C[C@H](C)/C=C/C=C/C=C/1C		patients with advanced solid tumours	intravenous, 16 mg weekly, grade 3 or higher	AE leading to dose reduction	50%
CCN1[C@@H](C(=O)NC23CCC(C(=O)O)(CC2)CC3)[C@H](c2cccc(Cl)c2F)[C@]2(C(=O)Nc3cc(Cl)ccc32)C12CCCCC2		patients with advanced solid tumours	oral, 150 mg	Dizziness incidence	12.5%
COc1cc2c(Oc3ccc4[nH]c(C)cc4c3F)ccnc2cc1OCC1(N)CC1		paediatric recurrent refractory sarcoma	concentration not given, whole group	grade 1 or 2 Hypertension	5.9%

Excerpt of the above:
Compound	assay	system	conditions	endpoint	result
COc1cc2c(Oc3ccc4[nH]c(C)cc4c3F)ccnc2cc1OCC1(N)CC1		paediatric recurrent refractory sarcoma	concentration not given, whole group	grade 1 or 2 Hypertension	5.9%
CC(C)CC(=O)OC[C@H]1O[C@@](C#N)(c2ccc3c(N)ncnn23)[C@H](O)[C@@H]1O		mouse whole blood	5 µM, 15 min	remaining compound	0%
